Assay results pooled from the literature.
A part holds a random share of what one study measured.
Sequence of UniProt O00571 (132-607, looked up): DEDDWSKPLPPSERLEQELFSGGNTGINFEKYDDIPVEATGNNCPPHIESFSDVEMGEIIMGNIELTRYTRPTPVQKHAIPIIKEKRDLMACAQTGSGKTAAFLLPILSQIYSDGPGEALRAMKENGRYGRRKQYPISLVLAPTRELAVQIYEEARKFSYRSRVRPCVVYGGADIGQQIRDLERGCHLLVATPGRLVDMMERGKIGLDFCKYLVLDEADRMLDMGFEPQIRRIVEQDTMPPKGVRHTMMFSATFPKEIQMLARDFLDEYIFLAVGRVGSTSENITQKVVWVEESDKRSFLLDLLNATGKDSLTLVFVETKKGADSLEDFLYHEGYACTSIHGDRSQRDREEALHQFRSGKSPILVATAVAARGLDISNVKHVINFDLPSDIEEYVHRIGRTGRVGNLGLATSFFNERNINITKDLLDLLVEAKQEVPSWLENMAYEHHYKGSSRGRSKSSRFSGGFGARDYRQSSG

Study 1
Cell line: HEK-293T/ACE2
Effect on: pseudovirus infection
Organism: VSV pseudotyped with SARS-CoV-2 spike
Concentration: concentration not given
Baseline: vehicle-treated
SMILES	GFP-positive cells
CC(C)C[C@H](NC(=O)[C@H](CCc1ccccc1)NC(=O)CN1CCOCC1)C(=O)N[C@@H](Cc1ccccc1)C(=O)N[C@@H](CC(C)C)C(=O)[C@@]1(C)CO1	8.81%
C/C=C1\NC(=O)[C@H]2CSSCC/C=C/[C@H](CC(=O)N[C@H](C(C)C)C(=O)N2)OC(=O)[C@H](C(C)C)NC1=O	37.5%
Cl.O=C1[C@@H]2[C@H]3CC[C@H](C3)[C@@H]2C(=O)N1C[C@@H]1CCCC[C@H]1CN1CCN(c2nsc3ccccc23)CC1	72.7%

Study 2
Strand: GCAC
Technique: RNA Bind-n-Seq
Molecule type: RNA
Sample: in vitro
Setting: 4-mer, random 30-nt RNA, single round
Baseline: input library
Reading: higher = stronger binding
EIF4A1: Eukaryotic initiation factor 4A-I (EIF4A1, Homo sapiens, UniProt P60842, residues 1-406, full length assumed)
Sequence of UniProt P60842 (whole entry, looked up): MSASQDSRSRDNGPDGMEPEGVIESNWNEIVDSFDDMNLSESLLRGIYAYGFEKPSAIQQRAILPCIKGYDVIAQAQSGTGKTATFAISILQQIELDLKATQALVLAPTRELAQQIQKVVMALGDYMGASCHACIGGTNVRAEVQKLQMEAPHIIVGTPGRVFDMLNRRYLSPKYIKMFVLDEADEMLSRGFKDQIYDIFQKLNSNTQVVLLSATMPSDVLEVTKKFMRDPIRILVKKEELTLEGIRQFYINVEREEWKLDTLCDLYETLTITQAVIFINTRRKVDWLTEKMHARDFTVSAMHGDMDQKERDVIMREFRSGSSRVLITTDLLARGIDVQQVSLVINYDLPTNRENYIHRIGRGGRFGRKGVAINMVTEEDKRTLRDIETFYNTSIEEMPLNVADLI
target	conditions	4-mer enrichment
ATP-dependent RNA helicase DDX3X, helicase core (DDX3X, Homo sapiens, UniProt O00571, residues 132-607)	not given, together with: RocA, ADP, phosphate	0.72 fold
EIF4A1	90 pmol, together with: 3 µM DMDA-PatA, 2 mM ADP, 2 mM phosphate	0.632 fold
EIF4A1	not given, together with: RocA, ADP, phosphate	0.704 fold
EIF4A1	15 pmol, together with: DMSO vehicle, 2 mM AMP-PNP	0.864 fold

Study 3
Target: Replicase polyprotein 1ab, main protease (rep, Severe acute respiratory syndrome coronavirus 2, UniProt P0DTD1)
Effect on: enzyme activity
Mode: inhibitor
Concentration: 20 µM
Setting: hit confirmation
SMILES	inhibition [%]
O=C(NC(=S)N1CCCc2ccccc21)c1ccccc1	81.1
CC(=O)OC/C=C(C)/C=C/C=C(C)/C=C/C1=C(C)CCCC1(C)C	47.7
O=C(O)C(O)Cc1ccc(O)c(O)c1 (stereo not drawn)	85.6

Study 4
Target: Replicase polyprotein 1ab, nsp12 with nsp7/nsp8 (rep, Severe acute respiratory syndrome coronavirus 2, UniProt P0DTD1)
Mode: inhibitor
Organism: SARS-CoV-2
Concentration: 20 µM
Compound	inhibition [%]
CC1=NN(c2ccc(C)c(C)c2)C(=O)/C1=N\Nc1cccc(-c2cccc(C(=O)O)c2)c1O	103
C=C1c2cccc(O)c2C(=O)C2=C(O)[C@]3(O)C(=O)C(C(N)=O)=C(O)[C@@H](N(C)C)[C@@H]3[C@@H](O)[C@H]12	80.7
O=c1c(O)c(-c2ccc(O)c(O)c2)oc2cc(O)ccc12	107
Cc1cc(N)c2ccccc2[n+]1CCCCCCCCCC[n+]1c(C)cc(N)c2ccccc21	98.4
O=C(O)c1cc(/N=N/c2ccc(O)c(C(=O)O)c2)ccc1O	82.3
COc1cc(NC(C)CCCN)c2ncccc2c1 (stereo not drawn)	100
O=C(O)c1c(Cl)c(Cl)c(Cl)c(Cl)c1-c1c2cc(I)c(=O)c(I)c-2oc2c(I)c(O)c(I)cc12	105
O=C(N/N=C/c1ccc([N+](=O)[O-])o1)c1cc([N+](=O)[O-])cc([N+](=O)[O-])c1O	112
